Assay results of several laboratories.
Every numbered part comes from another study and shows a few of its results, in no order. Positions count from the first letter of the parent shown.

Set 1
Target: Histone acetyltransferase KAT6A, both winged helices, GST fusion (KAT6A, Homo sapiens, UniProt Q92794, residues 1-181)
Technique: protein binding microarray
Form: double-stranded DNA, one strand shown
Sample: in vitro
Concentration: not given
Setting: 8-mer, flanks averaged, mean of 2 arrays, mostly near background
Relative to: not given
Direction: higher = stronger binding
Construct (chain): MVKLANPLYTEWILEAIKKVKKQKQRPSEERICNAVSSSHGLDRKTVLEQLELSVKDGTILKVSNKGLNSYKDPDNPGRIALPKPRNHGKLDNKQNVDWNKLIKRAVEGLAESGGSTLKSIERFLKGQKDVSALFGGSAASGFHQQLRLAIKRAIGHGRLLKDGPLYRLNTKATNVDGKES
`AGCGGTCC` gave an E-score of 0.136.
The E-score of `ATATCGTC` is reported as -0.154.
For `CATTACAA`, the E-score was -0.056.
The E-score of `CACCATAC` is reported as -0.0616.
The E-score of `AACTCGAC` is reported as -0.0966.
`GCCCGAGA` has an E-score of 0.111.
`AACCATTG` has an E-score of -0.0443.
For `CTTTATAA`, the E-score was -0.0402.

Set 2
Target: FOSL2, bZIP domain (human)
Technique: DHFR protein complementation
Sample: yeast
Setting: single substitutions, most at no-binding floor
Relative to: wild-type JUN-FOS pair
Direction: higher = stronger binding
Parent: JUN, bZIP domain (human); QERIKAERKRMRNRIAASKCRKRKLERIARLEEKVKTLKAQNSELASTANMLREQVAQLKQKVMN; partner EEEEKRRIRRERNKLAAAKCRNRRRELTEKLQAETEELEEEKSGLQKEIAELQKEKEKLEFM
`L31S` gave a binding fitness of -0.453 natural log.
`A46R` gave a binding fitness of 0.165 natural log.
`K36S` gave a binding fitness of 0.0754 natural log.
With `L38T` the binding fitness was -0.728 natural log.
With `K34D` the binding fitness was -0.102 natural log.
The binding fitness of `K36P` is reported as -1.26 natural log.
For `L52C`, the binding fitness was -1.27 natural log.
`K36R` gave a binding fitness of 0.135 natural log.
The binding fitness of `M51A` is reported as 0.16 natural log.
With `R30H` the binding fitness was 0.151 natural log.
`K36F` has a binding fitness of -0.108 natural log.
`I28H` gave a binding fitness of -0.0831 natural log.
For `T48K`, the binding fitness was 0.0709 natural log.

Set 3
Target: Sal-like protein 4, full length isoform A (SALL4, Homo sapiens, UniProt Q9UJQ4, residues 1-1053)
Chain of UniProt Q9UJQ4 (whole entry, looked up): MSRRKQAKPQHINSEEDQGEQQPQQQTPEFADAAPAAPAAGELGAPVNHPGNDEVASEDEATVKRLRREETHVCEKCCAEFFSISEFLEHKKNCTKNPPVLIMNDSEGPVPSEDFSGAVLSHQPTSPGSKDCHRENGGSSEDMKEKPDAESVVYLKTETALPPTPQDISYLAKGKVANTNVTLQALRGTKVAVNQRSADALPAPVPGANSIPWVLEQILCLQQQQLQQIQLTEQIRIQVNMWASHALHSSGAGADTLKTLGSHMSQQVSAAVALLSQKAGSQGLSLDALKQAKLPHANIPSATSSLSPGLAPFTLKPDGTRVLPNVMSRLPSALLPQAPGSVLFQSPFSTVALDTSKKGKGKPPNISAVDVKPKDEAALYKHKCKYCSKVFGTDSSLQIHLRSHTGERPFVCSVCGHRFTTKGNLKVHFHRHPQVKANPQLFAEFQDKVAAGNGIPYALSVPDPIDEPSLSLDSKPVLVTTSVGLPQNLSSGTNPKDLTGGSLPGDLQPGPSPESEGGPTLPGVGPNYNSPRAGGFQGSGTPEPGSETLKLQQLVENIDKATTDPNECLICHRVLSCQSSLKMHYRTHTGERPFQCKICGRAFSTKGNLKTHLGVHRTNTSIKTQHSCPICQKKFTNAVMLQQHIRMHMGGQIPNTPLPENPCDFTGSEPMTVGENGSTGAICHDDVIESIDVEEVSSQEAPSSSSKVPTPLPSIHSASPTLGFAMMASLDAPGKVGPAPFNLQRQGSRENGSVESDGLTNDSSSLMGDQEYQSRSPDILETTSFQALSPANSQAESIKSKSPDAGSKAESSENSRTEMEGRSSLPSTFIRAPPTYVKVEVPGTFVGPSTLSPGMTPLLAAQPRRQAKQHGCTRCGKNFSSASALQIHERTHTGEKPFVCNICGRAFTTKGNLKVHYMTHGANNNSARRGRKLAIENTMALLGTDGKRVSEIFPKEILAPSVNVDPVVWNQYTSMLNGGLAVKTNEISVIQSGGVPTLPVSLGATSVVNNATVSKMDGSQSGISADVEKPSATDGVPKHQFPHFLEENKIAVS
Technique: universal PBM
Form: double-stranded DNA, one strand shown
Sample: in vitro
Concentration: 600 nM
Setting: 8-mer, flanks averaged, mean of replicates
Direction: higher = stronger binding
`ATGCCGCG` has an E-score of -0.184.
`GAGGAGTA` has an E-score of -0.0233.
`CTTCCATC` has an E-score of -0.0926.
For `GTCTACGA`, the E-score was -0.103.
For `AACCACAG`, the E-score was -0.0762.
`ATCATCAC` gave an E-score of 0.16.
The E-score of `AACGCACC` is reported as -0.183.
`GTAATTCA` gave an E-score of 0.232.
The E-score of `CACGTGGC` is reported as -0.303.
For `CAAGCTTC`, the E-score was -0.0306.
For `CGTTCCAG`, the E-score was -0.0506.
`GTTGACGA` gave an E-score of -0.0813.
The E-score of `ACCTCCGA` is reported as -0.0589.
`AGTATTGA` gave an E-score of 0.233.
`AAATATTT` gave an E-score of 0.427.

Mixed results
With `PhoQ, residues 284 288 289 292 302 303 AGGCYF` the fold induction was 4.78 (PhoP, residues 12 14 15 18 19 GQAIL (Escherichia coli, UniProt P23836); Sort-seq, item: YFP reporter; E. coli; PhoQ-PhoP variant library, with: 10 µM Mg2+; relative to: high Mg2+ state, higher = stronger signaling).

A few entries again (set 3):
`ATCATCAC` gave an E-score of 0.16.
`AAATATTT` gave an E-score of 0.427.
For `CAAGCTTC`, the E-score was -0.0306.
`AGTATTGA` gave an E-score of 0.233.
